Measurements collected from several papers.
Numbered parts are unrelated; each lists some results of a single study.

Set 1 — technique: RNA Bind-n-Seq; form: RNA; matrix: in vitro; concentration: 1 µM; notes: whole 134-nt RNA, ends assumed; together with: 150 mM KCl; relative to: input library; reading: higher = stronger binding; quantity: log2 enrichment
Target: Ras GTPase-activating protein-binding protein 1, C-terminal RGG region (G3BP1, Homo sapiens, UniProt Q13283)
UniProt Q13283, sequence (whole entry, looked up): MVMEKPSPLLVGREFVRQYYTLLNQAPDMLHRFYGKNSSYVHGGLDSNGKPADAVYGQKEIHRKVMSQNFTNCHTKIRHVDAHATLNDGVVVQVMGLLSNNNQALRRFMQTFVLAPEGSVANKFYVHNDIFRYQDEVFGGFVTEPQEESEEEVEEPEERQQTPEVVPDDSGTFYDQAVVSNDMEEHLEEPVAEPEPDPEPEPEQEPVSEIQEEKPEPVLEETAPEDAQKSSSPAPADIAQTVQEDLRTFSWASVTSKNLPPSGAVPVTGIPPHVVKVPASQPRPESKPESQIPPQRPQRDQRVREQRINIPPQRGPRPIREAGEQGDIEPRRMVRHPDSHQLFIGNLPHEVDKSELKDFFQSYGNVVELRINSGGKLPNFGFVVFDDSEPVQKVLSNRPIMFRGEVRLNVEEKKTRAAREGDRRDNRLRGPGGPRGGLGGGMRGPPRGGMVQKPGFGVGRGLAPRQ
All sequences stand within: GGGAGUUCUACAGUCCGACGAUC … UGGAAUUCUCGGGUGUCAAGG
UGGGAGGUGGAUUUUGUUUAAUUUUUUAGCUCAUUUCCAGGGGUGGGAAUUUUUUUUUAAUAUGUGUCAUGAAUAAAGUUGUUUUUGAAA: 1.99
GUCCUGUGCUACACAUCGUAUGUACCGAAUCGGGGAAAAAGGGGAAAAAGGGAAAAAGGAAAGUAUUAUGUUACGCCGUUCGGAUCUGCA: -1.18
UCCUGUGCUACACAUCGUAUGUACCGAAUCGGAAAAAAGGGGAAAAAAGGGAAAAAAGGAAAGUAUUAUGUUACGCCGUUCGGAUCUGCA: -1.31
UAACUUUAGAGGAGGAUCUGAUGGAUAUGGCAGUGGACGUGGAUUUGGGGAUGGCUAUAAUGGGUAUGGAGGAGGCCCUGGAGGUGGCAA: -0.226
GCAGGAAGUAAAAACAAAUGGAAAUGCUUCGGAUAGUGGCAGGGGUGGGGGUUGCUAAGGAAAGGGUGGGAUGCGAGUGGGUAAAGAGUU: 1.91
AGUCCUGUGCUACACAUCGUAUGUACCGAAUCGGGUGGGUUUUUUUGGGAAAAAGGGAAAGUAUUAUGUUACGCCGUUCGGAUCUGCACU: -0.382
ACCAUGCAGGUGGGCAGCUUUGGGAAGUGGGGCAAGGGGGGGAUAGGGAGGGGGGUAACACUUUGGGAACAGGUGGUCCCAGGUCGUUUC: -1.42
ACCAUGCAGGUGGGCAUCUUUGGGAAGUGGGGCAAGGGGGGGAUAGGGAGGGGGGUACCACUUUGGGAACAGGUGGUCCCAGGUCGUUUC: 2.52
CACAGACAACACGCACCCACACAGACACAGAGGGAAGGGGUUGGGAUGGGGACAGGGUGCACAGCAGGGCGGGGCAGGACCCCAGCCCCU: -0.553
UCAGCAACCACCUCAACUCAUUGACUCCGCCAACAUCCGUCAGGAGGAUGCCUUUGAUAACAACAGUGACAUUGCUGAAGAUGGUGGCCA: -1.75
CCUGUGCUACACAUCGUAUGUACCGAAUCGGGCCCCCCCGGCCCCCCCGGGGCCCCCCCGGAAAGUAUUAUGUUACGCCGUUCGGAUCUG: -1.29

Set 2 — technique: universal PBM; form: double-stranded DNA, one strand shown; matrix: in vitro; concentration: not given; reading: higher = stronger binding; quantity: E-score
Target: Sal-like protein 4, full length isoform B (SALL4, Homo sapiens, UniProt Q9UJQ4-2, residues 1-616)
Notes: 8-mer, flanks averaged, mean of replicates
Residues (chain): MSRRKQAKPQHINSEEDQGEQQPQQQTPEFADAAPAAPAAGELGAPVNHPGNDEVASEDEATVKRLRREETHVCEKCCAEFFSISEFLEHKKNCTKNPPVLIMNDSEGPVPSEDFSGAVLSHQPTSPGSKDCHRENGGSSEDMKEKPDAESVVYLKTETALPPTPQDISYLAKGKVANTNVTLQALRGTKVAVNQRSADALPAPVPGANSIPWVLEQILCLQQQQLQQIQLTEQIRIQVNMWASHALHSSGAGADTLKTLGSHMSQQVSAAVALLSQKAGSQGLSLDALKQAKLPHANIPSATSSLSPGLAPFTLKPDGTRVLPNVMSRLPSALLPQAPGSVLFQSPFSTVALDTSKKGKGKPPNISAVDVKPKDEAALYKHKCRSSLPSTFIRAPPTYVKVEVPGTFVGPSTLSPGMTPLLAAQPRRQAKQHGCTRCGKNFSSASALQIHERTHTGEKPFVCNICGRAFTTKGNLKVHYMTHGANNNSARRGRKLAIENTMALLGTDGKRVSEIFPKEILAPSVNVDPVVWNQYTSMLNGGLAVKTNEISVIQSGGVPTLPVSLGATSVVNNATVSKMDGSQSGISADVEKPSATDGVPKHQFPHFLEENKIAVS
ACGTACTG: 0.0275
TCCTAACA: 0.137
AATAAACG: 0.307
GGCAAAGA: 0.0498
CAGGGCAC: -0.307
CAGTACCA: -0.0972
CCGGGTTC: -0.381
ACGCACGA: 0.0691
GACGGTGA: -0.174
GGCTCACC: -0.356
GACCGGTA: -0.275
GATGTACA: 0.204
ACAAAGGT: 0.0968

Set 3 — technique: RNA Bind-n-Seq; form: RNA; matrix: in vitro; concentration: 365 nM; relative to: no-protein control; reading: higher = stronger binding; quantity: RBNS enrichment (R)
Target: RNA binding protein fox-1 homolog 2, RRM domain, GST-SBP tag (RBFOX2, Homo sapiens, UniProt O43251-10, residues 100-194)
Notes: natural RNA segment, single round, ends assumed
All sequences stand within: GGGAGUUCUACAGUCCGACGAUC … UGGAAUUCUCGGGUGCCAA
Target sequence (chain): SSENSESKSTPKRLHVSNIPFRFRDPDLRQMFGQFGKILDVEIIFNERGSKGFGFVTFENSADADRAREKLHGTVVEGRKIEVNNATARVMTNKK
AACGUUUCUGGUUUAGAGAAUACUCAGCCAUCCUGGAAACUAGCAAUAUUUAUUUUGCCUCAUUUACUUUAUUUUCAGUUUUAGAUGAGGUGAAGGUUUUCUUUCAGUUA: 0.491
AAGACCUUGGAUUUUUUUAAGUAACUUUAUAUCAGAAAUGAUACUGCAUCUUUAUAUUUUUAAAAUUGUAUUGCUGCUCAAGAAUGGUACCCUCUUGUCAAAAAGGCAUA: 0.777
GUAGAAAAAUCUUCCUGGCACUUGGUGUUUCUAUGUUAUUGAAAAAUGAUGUUCCAGAAAGAUUACUUUUUCUUUUAUUUUUACUGCCAUUGUUGAUGUGUUGUGGGACA: 0.581
UAUAUCACAUUUUACUGAACCAAAAAGUUGGGUUUCCAAUAAAAUACUUGUUUUUUAAUAACCGACUUGUUUUUAACUGUGAUCUGAACUAUAAUGUACAGUUAUUACAG: 0.576
UGUGACAGUCUGUGGGGACUGUCCCAGUGCCUUUGUGAUGACCUAAACUGCACUGAGUCUCUUGCCAAGAAGCAAUGCUUUUUUUGUGAAGGCCACUCAGAGCAUCUUGC: 0.421
AAAGUGCCCAAGCUGCUGACGCAAACAACAACAAAUGCUGCUUAUUUGCAUGCCGACUUACAUAUAUUUGCAUGUUCGUUGACUAUCAAAGAGUGCAGAGCUCUCCCCAG: 0.463
UGGACAGAAAGGGGACCCGACUGCUUUGGACCUAGAUGGCCUAUUGCGGCUGGAGGAUCCUGAGGACAGGAGAGGGGCUUCGGCUGACCAGCCAUAGCACUUACCCAUAG: 0.214
AAGAACAUUAACGUCACAAGUUCUAAGUAGUUUUCACAGCAAAGAAUAUUUGAUAAUGGUUGCACUUAUCUUCAGUGCAGGUUAGAAGAGUCUUCUCAACCAAGCUUAAC: 0.3
ACCACAGCCAUUCAGGAACUACCCCCUGCCCCACAAAGAAAUGAACAGUUGUAGGGAGACCCAGCAGCACCUUUCCUCCACACACCUUCAUUUUGAUGUUCGGGUUUUUG: 0.691
GUUAUUAUUUGUUUCUGUUGUUUACUCUUUAAUCGUAAGUACUUUUAAACCACGACCCAGGUCCUUGGUUCACAUGGAAUAAUAAAGAUGUGUUUUUAGAUGGCACAUUG: 0.574
GCUUCUGAUUGCAAAUUUCAGAGGCCUGGCGACCCUCAGUCAGCUCAGGAUAAAGCACGGAUGGAUAAAGAAUAUUUGUCCCUUAUGGCUGAGCUAGGGGAAGCUCCUGU: 0.498

Single results of other studies
PhoQ, residues 284 288 289 292 302 303 DDMDFR  fold induction (PhoP, residues 12 14 15 18 19 NQFFI (Escherichia coli, UniProt P23836); Sort-seq, refers to: YFP reporter; E. coli; PhoQ-PhoP variant library, together with: 10 µM Mg2+; relative to: high Mg2+ state, higher = stronger signaling): 1.04

A few entries again (set 2):
CAGGGCAC: -0.307
CAGTACCA: -0.0972
CCGGGTTC: -0.381
ACGCACGA: 0.0691
GACGGTGA: -0.174
